Results of several laboratories.
Each line is one published result; not all experiments were run side by side. ± marks the error that the study gave.
KDM1A: Lysine-specific histone demethylase 1A (KDM1A, Homo sapiens, UniProt O60341)
Rhomboid protease AarA: Rhomboid protease AarA (Providencia stuartii, UniProt P46116)
Chain of UniProt P46116 (whole entry, looked up): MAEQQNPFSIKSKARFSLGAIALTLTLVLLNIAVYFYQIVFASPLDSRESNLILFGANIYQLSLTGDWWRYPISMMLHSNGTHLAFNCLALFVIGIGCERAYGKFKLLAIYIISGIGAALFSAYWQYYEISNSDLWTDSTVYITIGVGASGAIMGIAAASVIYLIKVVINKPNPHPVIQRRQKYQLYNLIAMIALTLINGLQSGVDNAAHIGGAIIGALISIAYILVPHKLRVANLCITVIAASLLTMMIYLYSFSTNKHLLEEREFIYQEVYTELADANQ
Chain of UniProt P07711 (whole entry, looked up): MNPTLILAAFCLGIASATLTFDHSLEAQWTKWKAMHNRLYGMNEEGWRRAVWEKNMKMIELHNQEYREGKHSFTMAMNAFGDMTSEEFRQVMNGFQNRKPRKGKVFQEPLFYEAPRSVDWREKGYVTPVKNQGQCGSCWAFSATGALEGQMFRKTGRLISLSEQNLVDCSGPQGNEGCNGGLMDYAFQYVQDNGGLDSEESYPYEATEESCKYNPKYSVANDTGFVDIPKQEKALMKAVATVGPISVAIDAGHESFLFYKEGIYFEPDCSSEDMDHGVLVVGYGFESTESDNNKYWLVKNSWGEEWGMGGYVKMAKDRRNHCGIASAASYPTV
Chain of UniProt Q8IZL9 (whole entry, looked up): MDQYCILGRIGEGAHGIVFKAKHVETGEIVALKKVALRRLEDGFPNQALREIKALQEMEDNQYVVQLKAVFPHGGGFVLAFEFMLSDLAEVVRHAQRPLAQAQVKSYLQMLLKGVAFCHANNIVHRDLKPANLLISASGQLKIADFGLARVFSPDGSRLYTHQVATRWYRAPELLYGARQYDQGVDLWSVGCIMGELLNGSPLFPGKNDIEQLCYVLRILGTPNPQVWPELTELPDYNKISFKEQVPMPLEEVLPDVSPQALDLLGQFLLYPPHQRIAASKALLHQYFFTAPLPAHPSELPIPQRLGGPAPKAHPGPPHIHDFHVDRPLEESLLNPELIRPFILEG
Chain of UniProt P12295 (whole entry, looked up): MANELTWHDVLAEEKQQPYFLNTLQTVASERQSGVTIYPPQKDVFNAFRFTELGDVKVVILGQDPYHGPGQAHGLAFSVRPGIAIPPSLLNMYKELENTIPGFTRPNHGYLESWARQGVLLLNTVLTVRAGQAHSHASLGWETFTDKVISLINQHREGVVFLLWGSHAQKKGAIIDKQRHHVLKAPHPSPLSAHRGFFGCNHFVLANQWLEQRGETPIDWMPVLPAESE
Chain of UniProt Q9HB29 (whole entry, looked up): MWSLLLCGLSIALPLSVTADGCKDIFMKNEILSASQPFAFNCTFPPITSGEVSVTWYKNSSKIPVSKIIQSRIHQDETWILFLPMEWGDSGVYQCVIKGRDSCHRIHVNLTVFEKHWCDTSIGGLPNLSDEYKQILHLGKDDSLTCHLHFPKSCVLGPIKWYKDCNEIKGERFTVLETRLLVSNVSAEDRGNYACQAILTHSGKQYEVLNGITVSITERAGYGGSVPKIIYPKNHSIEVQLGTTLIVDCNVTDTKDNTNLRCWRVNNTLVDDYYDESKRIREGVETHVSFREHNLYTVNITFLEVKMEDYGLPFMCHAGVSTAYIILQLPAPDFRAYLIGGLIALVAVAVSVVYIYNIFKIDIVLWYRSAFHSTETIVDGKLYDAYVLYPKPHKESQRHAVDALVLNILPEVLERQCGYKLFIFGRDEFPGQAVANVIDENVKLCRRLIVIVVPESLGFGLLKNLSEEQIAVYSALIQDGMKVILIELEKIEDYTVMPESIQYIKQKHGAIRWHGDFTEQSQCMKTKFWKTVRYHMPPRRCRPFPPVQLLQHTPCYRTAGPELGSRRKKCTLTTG
Chain of UniProt P28482 (whole entry, looked up): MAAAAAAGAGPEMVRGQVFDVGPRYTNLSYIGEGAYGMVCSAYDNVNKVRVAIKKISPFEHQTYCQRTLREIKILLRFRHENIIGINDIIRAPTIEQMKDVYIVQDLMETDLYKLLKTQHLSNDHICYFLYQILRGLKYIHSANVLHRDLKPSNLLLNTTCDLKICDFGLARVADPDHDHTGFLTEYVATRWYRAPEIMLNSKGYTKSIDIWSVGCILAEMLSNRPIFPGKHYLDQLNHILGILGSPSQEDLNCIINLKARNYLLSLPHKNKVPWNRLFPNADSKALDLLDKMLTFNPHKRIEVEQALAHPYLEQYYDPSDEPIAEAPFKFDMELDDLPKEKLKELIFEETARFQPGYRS
Chain of UniProt O75417 (whole entry, looked up): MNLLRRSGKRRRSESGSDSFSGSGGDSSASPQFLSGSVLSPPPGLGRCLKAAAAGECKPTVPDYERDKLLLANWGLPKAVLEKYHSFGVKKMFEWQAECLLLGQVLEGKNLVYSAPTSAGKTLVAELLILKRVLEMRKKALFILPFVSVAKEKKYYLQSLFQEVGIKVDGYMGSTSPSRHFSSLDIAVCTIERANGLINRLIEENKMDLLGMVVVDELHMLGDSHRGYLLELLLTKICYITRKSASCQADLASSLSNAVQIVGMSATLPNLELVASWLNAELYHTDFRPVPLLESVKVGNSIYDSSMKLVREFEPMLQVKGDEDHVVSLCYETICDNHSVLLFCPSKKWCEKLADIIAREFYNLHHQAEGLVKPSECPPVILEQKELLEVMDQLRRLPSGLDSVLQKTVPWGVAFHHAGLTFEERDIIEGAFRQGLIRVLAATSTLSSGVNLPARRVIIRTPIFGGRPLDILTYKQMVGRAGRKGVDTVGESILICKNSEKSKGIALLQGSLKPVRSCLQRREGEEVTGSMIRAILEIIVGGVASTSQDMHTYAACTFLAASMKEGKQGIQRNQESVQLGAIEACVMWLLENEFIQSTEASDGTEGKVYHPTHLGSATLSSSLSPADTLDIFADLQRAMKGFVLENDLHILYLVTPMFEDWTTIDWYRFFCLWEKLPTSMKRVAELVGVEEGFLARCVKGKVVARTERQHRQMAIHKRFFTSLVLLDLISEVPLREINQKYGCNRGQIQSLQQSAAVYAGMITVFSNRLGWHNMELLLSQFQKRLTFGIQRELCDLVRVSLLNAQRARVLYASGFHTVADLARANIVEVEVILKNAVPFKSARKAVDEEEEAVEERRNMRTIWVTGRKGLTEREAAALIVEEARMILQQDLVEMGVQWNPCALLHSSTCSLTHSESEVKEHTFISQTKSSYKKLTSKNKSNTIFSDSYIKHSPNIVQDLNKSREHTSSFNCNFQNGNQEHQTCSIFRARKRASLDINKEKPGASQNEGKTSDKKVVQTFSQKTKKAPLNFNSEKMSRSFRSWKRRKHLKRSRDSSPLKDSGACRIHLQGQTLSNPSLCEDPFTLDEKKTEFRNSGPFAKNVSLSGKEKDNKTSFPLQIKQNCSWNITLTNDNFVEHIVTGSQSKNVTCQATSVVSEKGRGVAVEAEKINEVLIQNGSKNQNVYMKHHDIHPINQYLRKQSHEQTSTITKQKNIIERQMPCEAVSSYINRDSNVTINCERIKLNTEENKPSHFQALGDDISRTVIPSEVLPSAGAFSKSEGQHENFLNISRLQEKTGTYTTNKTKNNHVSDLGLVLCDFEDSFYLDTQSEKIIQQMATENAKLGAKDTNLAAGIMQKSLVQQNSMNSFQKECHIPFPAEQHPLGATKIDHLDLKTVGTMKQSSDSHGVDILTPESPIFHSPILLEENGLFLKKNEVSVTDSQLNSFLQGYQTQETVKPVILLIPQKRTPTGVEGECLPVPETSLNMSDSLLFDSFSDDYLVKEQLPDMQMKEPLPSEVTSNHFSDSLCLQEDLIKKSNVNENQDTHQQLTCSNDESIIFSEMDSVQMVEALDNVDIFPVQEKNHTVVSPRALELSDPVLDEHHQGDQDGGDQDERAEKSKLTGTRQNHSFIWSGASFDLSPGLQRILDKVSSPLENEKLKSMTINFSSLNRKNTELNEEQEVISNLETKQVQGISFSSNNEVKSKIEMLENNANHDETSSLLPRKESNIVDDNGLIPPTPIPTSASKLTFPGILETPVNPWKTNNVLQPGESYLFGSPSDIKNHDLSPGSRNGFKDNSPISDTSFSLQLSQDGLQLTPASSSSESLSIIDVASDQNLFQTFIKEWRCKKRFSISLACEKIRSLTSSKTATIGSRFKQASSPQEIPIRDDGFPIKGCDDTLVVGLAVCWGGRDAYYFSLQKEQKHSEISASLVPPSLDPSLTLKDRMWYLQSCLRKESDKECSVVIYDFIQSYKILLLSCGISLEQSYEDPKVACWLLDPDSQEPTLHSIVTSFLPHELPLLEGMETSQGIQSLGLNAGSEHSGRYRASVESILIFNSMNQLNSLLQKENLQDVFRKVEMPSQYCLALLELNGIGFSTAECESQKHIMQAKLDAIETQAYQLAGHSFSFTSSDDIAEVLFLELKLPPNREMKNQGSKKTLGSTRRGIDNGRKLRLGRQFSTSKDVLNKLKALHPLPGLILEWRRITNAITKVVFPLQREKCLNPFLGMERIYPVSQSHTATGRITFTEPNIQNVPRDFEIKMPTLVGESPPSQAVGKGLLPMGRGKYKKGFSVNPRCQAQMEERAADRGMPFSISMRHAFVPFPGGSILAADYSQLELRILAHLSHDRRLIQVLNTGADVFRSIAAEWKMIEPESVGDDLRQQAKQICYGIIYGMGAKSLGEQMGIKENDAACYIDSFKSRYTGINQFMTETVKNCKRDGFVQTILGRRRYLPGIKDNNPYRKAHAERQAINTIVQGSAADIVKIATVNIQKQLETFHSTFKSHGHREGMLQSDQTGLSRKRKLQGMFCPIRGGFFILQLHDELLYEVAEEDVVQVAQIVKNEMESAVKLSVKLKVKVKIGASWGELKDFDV

CNC(=O)c1cccc([C@@H]2C[C@H]2NC2CCC2)c1 (racemic) gave a remaining activity of 94.8% (KDM1A; demethylase activity, inhibitor; 0.2058 µM, together with: H3K4me2 peptide).
For Cc1cc(C(=O)Nc2nc3cccc(C)c3n2[C@H]2CCCCN(C(=O)/C=C/CN(C)C)C2)ccn1, the remaining activity was 1.73% (CDC2-like kinase 1 (Trypanosoma brucei brucei, UniProt Q382U0); kinase activity, ADP-Glo; 0.625 µM).
CC(C)[C@@H]1NC(=O)[C@H](Cc2ccccc2)NC(=O)CSC[C@@H](C(N)=O)NC(=O)[C@H](CCC(=O)O)NC(=O)[C@H](CO)NC(=O)[C@H](Cc2c[nH]c3cccc(Cl)c23)NC(=O)[C@H](C2CCCCC2)NC(=O)[C@H](C(C)C)NC(=O)[C@H](Cc2ccc(O)cc2)NC(=O)[C@H](CC(=O)O)NC(=O)[C@H](Cc2c[nH]c3ccccc23)NC(=O)[C@H](Cc2ccc(N)nc2)NC(=O)[C@H](Cc2c[nH]c3ccc(Cl)cc23)NC(=O)[C@H](CCC(=O)O)NC1=O has a remaining activity of 102% (Interleukin-1 receptor-like 2 (IL1RL2, Homo sapiens, UniProt Q9HB29); reporter gene (SEAP), inhibitor, HEK-Blue IL-36R reporter; HEK-Blue IL-36R cells; 0.14 µM, 6 h, together with: IL-36γ 3 ng/mL).
With COC(=O)[C@@]1(C)C=C(C(=O)Nc2cccc(C(=O)Nc3ccc(Nc4nccc(-c5cccnc5)n4)c(C)c3)c2)C(=O)CC1 the remaining activity was 0.99 (MAPK1 (Homo sapiens, UniProt P28482); kinase activity, inhibitor; 0.02032 µM, unit not given; baseline: no inhibitor).
For Cc1nnc(NC(=O)c2cc([C@@H]3C[C@H]3NC3CCC3)ccc2Br)s1 (relative stereo), the remaining activity was 95.1% (KDM1A; demethylase activity, inhibitor, Amplex Red; 0.009145 µM, together with: H3K4me2 peptide; baseline: vehicle).
The remaining activity of O=C1CC(c2cccc(Br)c2)N1S(=O)(=O)c1cccc(Cl)c1 (stereo not shown) is reported as 54% (Rhomboid protease AarA; enzyme activity, inhibitor; 100 µM).
For COc1ccc(-c2ccc(C(=O)N(C)CCO)cc2)c(OC)c1, the remaining activity was 105 ± 3% (ung (Escherichia coli, UniProt P12295); enzyme activity, inhibitor; concentration not given, counter-screen).
COc1ccccc1-c1ccncc1C(=O)Nc1ccc(OCc2ccc(Cl)cc2)nn1 has a remaining activity of 72% (DNA polymerase theta, helicase domain (POLQ, Homo sapiens, UniProt O75417); ATPase activity, ADP-Glo; 1.9 µM; baseline: 0 µM cpd).
The remaining activity of O=C(Nc1cccc([C@@H]2C[C@H]2NC2CCC2)c1)c1ccccc1 is reported as 82.2% (KDM1A; demethylase activity, inhibitor; 1.852 µM, together with: H3K4me2 peptide).
The remaining activity of CN1C[C@@H](c2c[nH]c3cc(Br)ccc23)NC[C@@H]1c1c[nH]c2cc(Br)ccc12 is reported as 100% (Cyclin-dependent kinase 20, with cyclin H (CDK20, Homo sapiens, UniProt Q8IZL9); enzyme activity, inhibitor; 10 µM).
With COC(=O)CN1CCCc2cc3cc(C(=O)NC(Cc4cccc(Cl)c4)C(=O)NCC=CS(=O)(=O)c4ccccc4)c(=O)oc3cc21 (stereo not shown) the remaining activity was 6% (Procathepsin L (CTSL, Homo sapiens, UniProt P07711); inhibitor; 5 µM, 60 min, together with: Z-Phe-Arg-pNA; baseline: uninhibited control).
For O=C(Nc1nncs1)c1cccc([C@@H]2C[C@H]2NC2CCC2)c1, the remaining activity was 105% (KDM1A; demethylase activity, inhibitor, Amplex Red; 0.00823 µM, together with: H3K4me2 peptide; baseline: vehicle).
For CC1C(=O)N(S(=O)(=O)c2ccccc2)C1c1ccccc1 (stereo not shown), the remaining activity was 95% (Rhomboid protease AarA; substrate cleavage, gel-based; 100 µM; baseline: DMSO).

Excerpt of the above:
With COC(=O)CN1CCCc2cc3cc(C(=O)NC(Cc4cccc(Cl)c4)C(=O)NCC=CS(=O)(=O)c4ccccc4)c(=O)oc3cc21 (stereo not shown) the remaining activity was 6% (Procathepsin L (CTSL, Homo sapiens, UniProt P07711); inhibitor; 5 µM, 60 min, together with: Z-Phe-Arg-pNA; baseline: uninhibited control).
For COc1ccc(-c2ccc(C(=O)N(C)CCO)cc2)c(OC)c1, the remaining activity was 105 ± 3% (ung (Escherichia coli, UniProt P12295); enzyme activity, inhibitor; concentration not given, counter-screen).
